# Measurements of several laboratories.
# Every numbered part comes from another study and shows a few of its results, in no order.

# Set 1 — method: aptamer microarray, sandwich; molecule type: DNA with 2'F-ANA; matrix: in vitro; concentration: 200 nM; with: Cy3 exosite-II aptamer, 400 nM; reading: higher = stronger binding; oligonucleotide: GGTTGGTGTGGTTGG
# Target: Prothrombin, mature alpha-thrombin (F2, Homo sapiens, UniProt P00734)
# Notes: whole 15-mer aptamer, many near background
Modification,mean fluorescence intensity
2'F-ANA at 1 4 5 6 10 11 14 15,76.3 a.u.
2'F-ANA at 1 2 3 6 7 8 9 12,453 a.u.
2'F-ANA at 3 4 7 8 9,834 a.u.
2'F-ANA at 1 2 3 6 7 8 11 13 14 15,87.2 a.u.
2'F-ANA at 1 3 5 7 8 9 10 12 13 14,49.5 a.u.
2'F-ANA at 1 4 7 10 11 12 14,46.3 a.u.
2'F-ANA at 1 3 5 7 9 10 11 12,55.8 a.u.
2'F-ANA at 1 6 7 8 9 11 15,154 a.u.
2'F-ANA at 1 3 4 7 8 9 10 13 14,51.1 a.u.
2'F-ANA at 1 4 6 7 8 11 13 14,63.2 a.u.
2'F-ANA at 4 5 7 8 11 12 15,124 a.u.
2'F-ANA at 1 2 8 11,174 a.u.
2'F-ANA at 2 3 4 5 6 7 9 14,69.9 a.u.
2'F-ANA at 1 2 3 4 8 11 13 14,106 a.u.
2'F-ANA at 3 4 5 7 13 15,59.2 a.u.
2'F-ANA at 6 9 10 12 14 15,109 a.u.
2'F-ANA at 1 2 5 9 11 12,95.6 a.u.
2'F-ANA at 1 2 5 7 12 13,78 a.u.
2'F-ANA at 2 4 6 7 12 15,492 a.u.
2'F-ANA at 3 6 7 8 9 11 12 15,1080 a.u.
2'F-ANA at 2 7 8 12 13 14 15,231 a.u.

# Set 2 — method: RNA Bind-n-Seq; molecule type: RNA; matrix: in vitro; concentration: 365 nM; baseline: no-protein control; reading: higher = stronger binding
# Target: RNA binding protein fox-1 homolog 2, RRM domain, GST-SBP tag (RBFOX2, Homo sapiens, UniProt O43251-10, residues 100-194)
# Notes: natural RNA segment, single round, ends assumed
Oligonucleotide,RBNS enrichment (R)
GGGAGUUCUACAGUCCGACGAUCAGUUGUUCAGGGUCCCCGUGUGUGUGAUAAGCAGUGCUGGCUGGCUGUCUUCAGAACUCUUGGAAAUCUUUACACAUGCGAGUGCUAACCACUUUGAGCAAGGCUGCCUUUGGAAUUCUCGGGUGCCAA,0.525
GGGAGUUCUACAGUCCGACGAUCGAAUAGUACUUUAUAUUCUUUAUCAUACCACUUUUGUAAGUGUUGAAUAUAUUGCUGUUUAUUUUUCUAUGUUCUGUUUCGUAGCCUUAAGAAGUGUUUCAAACGAUCUGUGGAAUUCUCGGGUGCCAA,0.376
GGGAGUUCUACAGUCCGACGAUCGGGGGAGGGGAGCCGCUUCCCCACUGUUGCUCUUUUUUAAACAAAUUGAGUUCCUUUUUUUAAGAUAGAAAUUCUUUUCAUGGUCCUCUGAAAGAAGCAAUAGUAACAAUUGGAAUUCUCGGGUGCCAA,0.558
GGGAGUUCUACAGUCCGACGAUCCACAACUUGCACAGCAGGCCCACCCUGCAAGGACCCCAUCAGUGUGAGCAUCGCAGUAGCCAGCCACAGAAGCUAACAAGCCUUGAACCACUCUGGUGGCCACACAGCGCUGGAAUUCUCGGGUGCCAA,0.527
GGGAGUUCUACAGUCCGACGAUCGAAAAUAUAUGUAAUAUGUAAAAAUAUGAAUGACUAUGUAUUCAAUAAAAAUAAUAUAGCACUGUAAUGCAGCUGCCUCUCUUCCUUUCCCUCUUCCAUCUCUUGCCUAGUGGAAUUCUCGGGUGCCAA,0.818
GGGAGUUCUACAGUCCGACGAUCUCCUCGUCUUCUUCAUCCUCAUCAUCCUCCACGUGCAGUGAUGUGGCAGCACAGACCCCUGGAGGCCCCGGAGGACCCGAGGCGGGGUCCAAGGCUGAGUGAGAGCCGGCUGGAAUUCUCGGGUGCCAA,0.468
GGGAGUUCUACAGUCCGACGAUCCCUUUAUUGCAGUUCAAAUCCUCACCAUCCACAGCAAGAUGAAUUUUAUCAGCCAUGUUUGGUUGUAAAUGCUCGUGUGAUUUCCUACAGAAAUACUGCUCUGAAUAUUUUGGAAUUCUCGGGUGCCAA,0.49
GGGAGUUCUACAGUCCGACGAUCCUAAGACUGAUCUGAGAGCCAUUGGGCCAUCAAGCCUUUAUAUAUCUGCUUCUAAAAUUGCCCCACCUGCUCUAGAUGGAUCUUUGGGCCUUUCCUCAGUGUUCAUGCAAUGGAAUUCUCGGGUGCCAA,0.854
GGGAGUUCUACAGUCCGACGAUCUGCUAGUAAAUGGAGCUUUGUACAUAGUCAUUGUGAUGUCUUGGCUGCCCGGACACCACGUAAACAUAACACUAAAGAAACUGUCCUGGAGAUCCCAUCCUGCUACUAAGUGGAAUUCUCGGGUGCCAA,0.542
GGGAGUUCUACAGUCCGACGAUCGCAUUGUAAAAAACAGAUACUGUGGUAGAUUUCUAGAAAUUCAUUCACAUUUAAGACUUCUAAAAUGGAAUAAUAGCCUUUUGUUUUUCAUGAGCAUAUUCGCACCCCUAUGGAAUUCUCGGGUGCCAA,0.465
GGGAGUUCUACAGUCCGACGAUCCUAACGGGACUGGUUUUCAAAGCAGUUAUCUUGGGAAACUGUUUAUUCCAGCGAUGUGACUUUUUUCAGAAUAUUUCUUGGAAUCAUAUUCAGAGUCUGGGGCUGUGUGUUGGAAUUCUCGGGUGCCAA,0.407
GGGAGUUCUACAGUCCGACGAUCGCCUUCCUCCAUUUUUAUUCAUGGCUACUUGAGAAAGCAAAAGGAAAAAAUAAUAGUUAUCAGUAGUGUCACUGGAAAGAAGAGAGGAGGGACAAAACUGAGCAGCAGAAUGGAAUUCUCGGGUGCCAA,1.25

# Set 3 — target: human cyclin A2; read-out: peptide binding; method: competitive growth sequencing; molecule type: peptide; organism: Saccharomyces cerevisiae; strain: cyclin A2-Cln2 fusion strain; concentration: concentration not given; notes: mutational scanning library; baseline: unfused Cln2 strain; reading: direction not given
Molecule,binding score
TKVRANAFNQELL,0.0529
PKPLAKARFDIEG,0.00632
HKTFRKLRLFDTP,-0.5
PPVKARADLETDH,0.313
PKPLKKLRFDIEG,0.358
STTRARAFVENDS,0.146
LPAKRKLDLEGIG,2.63
PSVRAQAFVTVVK,-0.417

# Set 4 — method: RNA Bind-n-Seq; molecule type: RNA; matrix: in vitro; concentration: 200 nM; notes: whole 134-nt RNA, ends assumed; with: 150 mM KCl; baseline: input library; reading: higher = stronger binding
# Target: Ras GTPase-activating protein-binding protein 1, full length (G3BP1, Homo sapiens, UniProt Q13283)
# Sequence of UniProt Q13283 (whole entry, looked up): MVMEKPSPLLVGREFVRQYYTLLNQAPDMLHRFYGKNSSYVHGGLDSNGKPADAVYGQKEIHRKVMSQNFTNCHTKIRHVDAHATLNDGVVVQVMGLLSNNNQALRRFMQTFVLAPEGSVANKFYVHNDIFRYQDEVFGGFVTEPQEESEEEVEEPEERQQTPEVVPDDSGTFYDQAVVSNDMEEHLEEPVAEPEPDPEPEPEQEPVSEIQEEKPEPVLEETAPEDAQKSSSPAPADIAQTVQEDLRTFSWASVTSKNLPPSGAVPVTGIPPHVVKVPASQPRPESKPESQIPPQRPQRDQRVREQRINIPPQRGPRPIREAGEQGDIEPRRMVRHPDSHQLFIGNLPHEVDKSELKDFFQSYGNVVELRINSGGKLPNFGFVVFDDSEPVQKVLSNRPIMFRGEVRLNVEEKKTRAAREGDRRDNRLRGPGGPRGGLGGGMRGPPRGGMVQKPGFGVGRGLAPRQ
Oligonucleotide,log2 enrichment
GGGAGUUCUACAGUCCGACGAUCUCCUGUGCUACACAUCGUAUGUACCGAAUCAAAUUUUUUUAAACCCAAAUUUUUUUAAAAAAGUAUUAUGUUACGCCGUUCGGAUCUGCAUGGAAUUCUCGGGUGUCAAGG,0.0216
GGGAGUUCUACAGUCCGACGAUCCAAGUCCUGUGCUACACAUCGUAUGUACCGAAUCGGGGUUUGGUUUGGGGUUUGGAAAGUAUUAUGUUACGCCGUUCGGAUCUGCACUUCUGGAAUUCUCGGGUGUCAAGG,-0.311
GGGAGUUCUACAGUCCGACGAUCAGUCCUGUGCUACACAUCGUAUGUACCGAAUCAAACCCAAAUUUUUUUAAAUUUAAAAAAGUAUUAUGUUACGCCGUUCGGAUCUGCACUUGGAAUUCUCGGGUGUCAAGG,-0.418
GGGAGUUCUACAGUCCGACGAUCUGGGAGGUGGGUUUUGUUUAUUUUUUUAGCUCAUUUCCAGGGGUGGGAAUUUUUUUUUAAUAUGUGUCAUGAAUAAAGUUGUUUUUGAAAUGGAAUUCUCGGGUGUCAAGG,0.386
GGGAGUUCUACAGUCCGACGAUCUCCUGUGCUACACAUCGUAUGUACCGAAUCGGCCCCCCGGGGCCCCCCGGGCCCCCCGGGAAAGUAUUAUGUUACGCCGUUCGGAUCUGCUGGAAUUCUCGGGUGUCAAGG,-0.8
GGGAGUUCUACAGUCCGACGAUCCUCAAGUCCUGUGCUACACAUCGUAUGUACCGAAUCGGGGCCGGGGCCGGCCGGAAAGUAUUAUGUUACGCCGUUCGGAUCUGCACUUCCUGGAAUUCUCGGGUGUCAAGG,-0.513
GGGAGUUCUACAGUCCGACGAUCGUCCUGUGCUACACAUCGUAUGUACCGAAUCGGGGAAAAAAAGGGGUUUGGGGUGGGGAAAGUAUUAUGUUACGCCGUUCGGAUCUGCACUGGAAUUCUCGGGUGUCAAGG,0.29
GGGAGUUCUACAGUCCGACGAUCGUCCUGUGCUACACAUCGUAUGUACCGAAUCAAAUUUUUAAACCCCCAAAUUUUUAAAAAAGUAUUAUGUUACGCCGUUCGGAUCUGCACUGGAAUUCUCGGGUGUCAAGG,-0.0258
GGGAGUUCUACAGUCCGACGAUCUAACUUUAGAGGAGGAUCUGAUGGAUCUGGCAGUGGACGUGGAUUUGGGGAUGGCUAUAAUGGGUAUGGAGGAGGACCUGGAGGUGGCAAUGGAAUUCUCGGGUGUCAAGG,0.483
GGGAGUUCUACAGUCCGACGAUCGCAGGAAGUAAAAACAAAUGGAAAUGCUUCGGAUAGUGGCAGGGGUGGGGGUAGCUAAGGAAAGGGUGGGAUGGGAGUGGGUAAAGAGUUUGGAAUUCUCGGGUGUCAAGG,1.03
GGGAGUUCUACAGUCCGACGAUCGUUGUAGACACUCCUGGGAUCCUGGACCACCCUCUGGAGGAUAGGAACACCAUCGAGAUGCAGGCCAUCACUGCCCUGGCCCACCUCCGUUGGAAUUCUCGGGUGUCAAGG,0.87
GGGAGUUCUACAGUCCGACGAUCCUCAAGUCCUGUGCUACACAUCGUAUGUACCGAAUCGGGUGGGUGGGUUUGGGAAAGUAUUAUGUUACGCCGUUCGGAUCUGCACUUCCAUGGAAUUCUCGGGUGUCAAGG,0.722
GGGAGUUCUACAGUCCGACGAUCCAAGUCCUGUGCUACACAUCGUAUGUACCGAAUCGGAGGUUUUUUUGGAAAAAGGAAAGUAUUAUGUUACGCCGUUCGGAUCUGCACUUCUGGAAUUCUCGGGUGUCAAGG,-1.1
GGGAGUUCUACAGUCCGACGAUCCCUCAAGUCCUGUGCUACACAUCGUAUGUACCGAAUCGGUGGGUGGGUGGGGAAAGUAUUAUGUUACGCCGUUCGGAUCUGCACUUCCAGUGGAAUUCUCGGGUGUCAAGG,1.24

# Set 5 — method: universal PBM; molecule type: double-stranded DNA, one strand shown; matrix: in vitro; concentration: not given; reading: higher = stronger binding
# Target: Sal-like protein 4, full length isoform B (SALL4, Homo sapiens, UniProt Q9UJQ4-2, residues 1-616)
# Notes: 8-mer, flanks averaged, mean of replicates
Oligonucleotide,E-score
AGTAAAGA,0.139
ATCTGATC,0.0492
CCGACTAC,-0.164
GTTATAGA,0.339
CGCCTTAG,-0.287
TAACGGTA,0.133
ACGGTTTA,-0.0412
CCTCTGAG,-0.189
TACTATGA,0.235
CACCGACC,-0.242
ATCCGCAA,0.023
AAACTCGG,-0.159
AACAATTG,0.206
ACGCTGTC,-0.242
ATACCGTA,0.123
CTTATCTC,0.122
ACACTGTG,-0.0996
ATTCTGAA,0.134
AGGGACAG,-0.16
CTATAGAC,0.0949

# Repeated from above (set 1):
Modification,mean fluorescence intensity
2'F-ANA at 1 2 3 4 8 11 13 14,106 a.u.
2'F-ANA at 3 4 5 7 13 15,59.2 a.u.
2'F-ANA at 6 9 10 12 14 15,109 a.u.
2'F-ANA at 1 2 5 9 11 12,95.6 a.u.
2'F-ANA at 1 2 5 7 12 13,78 a.u.
2'F-ANA at 2 4 6 7 12 15,492 a.u.
